Published values from different studies.
Protocols differ between the studies behind these lines.
Target: Ephrin type-B receptor 4 (EPHB4, Homo sapiens, UniProt P54760)

With `Cc1cnc2nc1Nc1cccc(c1)COC/C=C/COCc1cc(ccc1OCCN1CCOCC1)N2` the remaining binding was 100% (binding; 0.1 µM).
`O=C=[N][Ru-4]123([n]4c5ccc(O)cc5c5c6c(c7cc(F)c[n+]1c7c54)C(=O)NC6=O)[S+]1CC[S+]2CC[S+]3CC1` (stereo not shown) has a remaining activity of 113% (enzyme activity; 100 nM, human enzyme, with: 10 µM ATP; relative to: untreated).
`CCN1CCN(Cc2ccc(C(=O)Nc3ccc(C)c(NCc4cnc5[nH]ccc5c4OC)c3)cc2C(F)(F)F)CC1` has a remaining binding of 23% (binding, competition with immobilised ligand; 1 µM).
`COc1cc(Nc2nc(C)cc(-c3cnn4nc(OC)ccc34)n2)cc(C(F)(F)F)c1` gave a remaining activity of 94% (inhibitor; 1 µM; relative to: control).
Under “activity vs control”, `CNC(=O)C[C@H](Cc1ccc(C#N)cc1)NC(=O)c1cc(-c2ccc(CN[C@H](C)c3ccc(C)cc3)o2)ccc1Cl` is recorded as 90% (enzyme activity, inhibitor; 1 µM).
With `CN1CCN(Cc2ccc(-c3ccc(CO[C@H]4CCC[C@@H]4NC(=O)c4cc(-c5cnn(C)c5)cnc4N)cc3)cc2)CC1` the inhibition was -1% (enzyme activity, inhibitor; 0.1 µM).
With `O=C(O)CCC(=O)c1cccc(NS(=O)(=O)c2c[nH]c3ncccc23)c1` the remaining activity was 88% (kinase activity, radiometric; 10 µM).
With `C=CC(=O)Nc1cccc(-c2cnc3[nH]cc(C(=O)NC(C)(C)C)c3n2)c1` the inhibition was -3% (enzyme activity, inhibitor; 0.1 µM).
`CCn1cc(C(=O)O)c(=O)c2c(N)c(F)c(NC3CCCCC3)cc21` gave an inhibition of 3.1% (kinase activity; 0.1 µM, with: ATP at Km).
`NC(=O)C[C@H]1CCc2sc3ncnc(O[C@H]4CC[C@H](N5CCOCC5)CC4)c3c21` gave an inhibition of 24% (enzyme activity, inhibitor; 10 µM).
With `COc1cc(-n2cc3cc(F)cc(C(N)=O)c3n2)cc(Cl)c1C1CC(O)(CCO)Cc2ccccc21` (stereo not shown) the inhibition was 0.39% (enzyme activity, inhibitor; 10 µM).
With `COc1c(Cl)cccc1Nc1c(-c2ccncc2C#C[C@@]2(C)CCCN2C(=O)/C=C/CN(C)C)[nH]c2c1C(=O)NCC2` the remaining binding was 96% (cell-free assay, competition with immobilised ligand; 3 µM).
`C=CC(=O)N1Cc2nc(-c3cc(-c4cc(Cl)cnc4Cl)c(F)cc3F)n(-c3ccncn3)c2C1` has an inhibition of 2.2% (cell-free assay; 1 µM).

A few entries again:
Under “activity vs control”, `CNC(=O)C[C@H](Cc1ccc(C#N)cc1)NC(=O)c1cc(-c2ccc(CN[C@H](C)c3ccc(C)cc3)o2)ccc1Cl` is recorded as 90% (enzyme activity, inhibitor; 1 µM).
With `CN1CCN(Cc2ccc(-c3ccc(CO[C@H]4CCC[C@@H]4NC(=O)c4cc(-c5cnn(C)c5)cnc4N)cc3)cc2)CC1` the inhibition was -1% (enzyme activity, inhibitor; 0.1 µM).
